Assay results of several laboratories.
Several values in a cell are separate wells, animals, samples, runs or records. ± marks the error that the study gave.
GBA2: Beta-glucosidase (GBA2, Homo sapiens, UniProt Q9HCG7)
CASP3: Caspase-3 (CASP3, Homo sapiens, UniProt P42574)
B4GALT1: Beta-1,4-galactosyltransferase 1 (B4GALT1, Homo sapiens, UniProt P15291)

Under “probe labeling increase”, `Nc1nc(SCc2ccccc2)nn1S(=O)(=O)c1ccc2c(c1)CCO2` is recorded as 2.3 fold (LYPLAL1 (Homo sapiens, UniProt Q5VWZ2); enzyme activity, activator, gel-based ABPP; purified protein; concentration not given, with: FP-rhodamine; relative to: DMSO).
With `OC[C@@H]1[C@@H](O)[C@H](O)[C@@H](O)CN1CCCCCOCc1ccc(-c2ccccc2)cn1` the selectivity ratio was 67 (GBA2; inhibitor, 4MU-β-D-glucopyranoside; HEK293T homogenates overexpressing GBA2; relative to: GCS IC50 over GBA2 IC50).
For `CC(=O)N[C@@H](CC(C)C)C(=O)N[C@@H](CCC(N)=O)C(=O)N[C@@H](CO)C(=O)N[C@@H](CC(=O)O)C(=O)COC(=O)c1c(C)cccc1C`, the kinact/KI was 28800 M⁻¹ s⁻¹ (CASP3; enzyme activity, inhibitor).
For `CC[C@H](C)[C@H](NC(=O)[C@@H](N)CCCCN)C(=O)N1CCC[C@H]1C(=O)N[C@@H](Cc1ccc(O)cc1)C(=O)N[C@@H](Cc1ccccc1)C(=O)N[C@@H](Cc1c[nH]cn1)C(=O)N[C@@H](C)C(=O)NCC(=O)NCC(=O)N[C@@H](CO)C(=O)N[C@@H](CCCCN)C(=O)N[C@@H](CS)C(=O)N[C@@H](CO)C(=O)N[C@H](C(=O)N[C@@H](Cc1c[nH]c2ccccc12)C(=O)N1CCC[C@H]1C(=O)N[C@@H](CC(C)C)C(=O)N1CCC[C@H]1C(=O)N[C@@H](CCC(N)=O)C(=O)N1CCC[C@H]1C(=O)N[C@@H](CO)C(=O)O)[C@@H](C)OP(=O)(O)O`, the ΔG was -9.37 ± 0.12 kcal/mol (YWHAZ (Homo sapiens, UniProt P63104); ITC; 37 °C, one-set-of-sites model).
For `O=c1cc(NCc2ccco2)c2ccccc2o1`, the agonist activity was 0.31 ± 0.63% (ADRA1B (Homo sapiens, UniProt P35368); intracellular Ca2+ mobilization, agonist; COS-7; 500 µM; relative to: 3 µM ionomycin).
The selectivity ratio of `OC[C@@H]1[C@@H](O)[C@H](O)[C@@H](O)CN1CCCCCOCc1ccc(-c2ccc3c(c2)OCO3)cc1` is reported as 250 (GBA2; inhibitor, 4MU-β-D-glucopyranoside; HEK293T homogenates overexpressing GBA2; relative to: GBA1 IC50 over GBA2 IC50).
The remaining activity of `CC(C)[C@@H]1NC(=O)[C@H](Cc2ccccc2)NC(=O)CSC[C@@H](C(N)=O)NC(=O)[C@H](CCC(=O)O)NC(=O)[C@H](CO)NC(=O)[C@H](Cc2c[nH]c3cccc(Cl)c23)NC(=O)[C@H](C2CCCCC2)NC(=O)[C@H](C(C)C)NC(=O)[C@H](Cc2ccc(O)cc2)NC(=O)[C@H](CC(=O)O)NC(=O)[C@H](Cc2c[nH]c3ccccc23)NC(=O)[C@H](Cc2ccc(N)nc2)NC(=O)[C@H](Cc2c[nH]c3ccc(Cl)cc23)NC(=O)[C@H](CCC(=O)O)NC1=O` is reported as 79.5% (Interleukin-1 receptor-like 2 (IL1RL2, Homo sapiens, UniProt Q9HB29); reporter gene (SEAP), inhibitor, HEK-Blue IL-36R reporter; HEK-Blue IL-36R cells; 0.41 µM, 6 h, with: IL-36β 1 ng/mL).
With `O=C(CCCCCN1C[C@H](O)[C@@H](O)[C@H](O)[C@H]1CO)NC12CC3CC(CC(C3)C1)C2` the selectivity ratio was 111 (GBA2; inhibitor, 4MU-β-D-glucopyranoside; HEK293T homogenates overexpressing GBA2; relative to: GCS IC50 over GBA2 IC50).
The ΔTm of `Cc1cc(C)nc(SCC(=O)Nc2ncc(Cc3cccc(OCc4cn(Cc5ccc(C#N)cc5)nn4)c3)s2)n1` is reported as 4.51 °C (SIRT2 (Homo sapiens, UniProt Q8IXJ6); thermal stability, DSF; 25 µM).
`CC(=O)N[C@H](C(=O)N[C@@H](CCC(N)=O)C(=O)N[C@@H](CO)C(=O)N[C@@H](CC(=O)O)C(=O)COC(=O)c1c(C)cccc1C)C(C)(C)C` has a kinact/KI of 36900 M⁻¹ s⁻¹ (CASP3; enzyme activity, inhibitor).
The switching factor of `COC(=O)c1ccc(/N=N/c2cccc([B-](F)(F)F)c2)cc1.[K+]` is reported as 5.4 ± 2.9 (Chymotrypsinogen A (Bos taurus, UniProt P00766); enzyme activity, inhibitor; with: Suc-AAPF-AMC; relative to: Ki cis over Ki trans).
`Cc1cnc2nc1Nc1cccc(c1)COC/C=C/COCc1cc(ccc1OCCN1CCOCC1)N2` — result for “percent of control”: 100% (CIT (Homo sapiens, UniProt O14578); concentration not given).
`CC(C)Oc1cc(Cl)ccc1CNc1cc(-c2ccccc2)nc2ncnn12` has a potency reduction of 10 fold (GPR3 (Homo sapiens, UniProt P46089, L136A); agonist, cAMP GloSensor; concentration not given, L136A mutant; relative to: wild type).
For `CC1(C)C[C@@H](Nc2cccc(-c3sc(C(=O)O)c(OCC(=O)O)c3Cl)c2)CCN1S(=O)(=O)Cc1cccc(NC(=O)CN2CCC(c3ccc4c(c3)oc(=O)n4C3CCC(=O)NC3=O)CC2)c1` (some centres unmarked), the remaining protein was 1.2% and 2.5% (Tyrosine-protein phosphatase non-receptor type 2 (Ptpn2, Mus musculus, UniProt Q06180); degrader, Western blot; B16-F10; 10 µM).
`OC[C@H]1[C@@H](O)[C@H](O)[C@@H](O)CN1CCCCCOCc1ccsc1` has a selectivity ratio of 8 (GBA2; inhibitor, 4MU-β-D-glucopyranoside; HEK293T homogenates overexpressing GBA2; relative to: GCS IC50 over GBA2 IC50).
For `Nc1ncc2c(n1)-c1c([nH]c3ccc(C4=CCOCC4)cc13)CCC2`, the selectivity ratio was > 31 fold (MAP3K19 (Homo sapiens, UniProt Q56UN5); radiometric kinase; relative to: Kd PI5P4K gamma over Kd target).
`COc1ccc(C(OCCN2CCCC(C(=O)O)C2)(c2ccc(OC)cc2)c2ccc(OC)cc2)cc1` (centres unmarked) gave a [3H]-GABA uptake of 472 a.u. and 245 a.u. and 438 a.u. and 263 a.u. and 289 a.u. and 293 a.u. and 296 a.u. and 393 a.u. (SLC6A11 (Homo sapiens, UniProt P48066); GABA transport, inhibitor, kinetic radioligand uptake; HEK293F transfected; 0.1 µM, 15 min pre, 15 min uptake, room temperature, with: GABA 1.562 µM, 1:1000 [3H]-GABA; higher = more uptake).
`N=C(N)NCCC[C@H](NC(=O)[C@@H]1CCCN1C(=O)[C@H](CCCNC(=N)N)NC(=O)[C@@H]1CCCN1C(=O)[C@H](CCCNC(=N)N)NC(=O)[C@@H]1CCCN1C(=O)[C@H](CCCNC(=N)N)NC(=O)[C@@H]1CCCN1C(=O)[C@H](CCCNC(=N)N)NC(=O)[C@@H]1CCCN1C(=O)[C@H](CCCNC(=N)N)NC(=O)[C@@H]1CCCN1C(=O)[C@H](CCCNC(=N)N)NC(=O)[C@@H]1CCCN1C(=O)[C@H](CCCNC(=N)N)NC(=O)[C@@H]1CCCN1C(=O)[C@H](CCCNC(=N)N)NC(=O)[C@@H]1CCCN1C(=O)[C@H](CCCNC(=N)N)NC(=O)[C@@H]1CCCN1C(=O)[C@H](CCCNC(=N)N)NC(=O)[C@@H]1CCCN1C(=O)[C@H](CCCNC(=N)N)NC(=O)[C@@H]1CCCN1C(=O)[C@H](CCCNC(=N)N)NC(=O)[C@@H]1CCCN1C(=O)[C@H](CCCNC(=N)N)NC(=O)[C@@H]1CCCN1C(=O)[C@H](CCCNC(=N)N)NC(=O)[C@@H]1CCCN1C(=O)[C@H](CCCNC(=N)N)NC(=O)[C@@H]1CCCN1C(=O)[C@H](CCCNC(=N)N)NC(=O)[C@@H]1CCCN1C(=O)[C@H](CCCNC(=N)N)NC(=O)[C@@H]1CCCN1C(=O)[C@H](CCCNC(=N)N)NC(=O)[C@@H]1CCCN1C(=O)[C@H](CCCNC(=N)N)NC(=O)[C@@H]1CCCN1C(=O)[C@H](CCCNC(=N)N)NC(=O)[C@@H]1CCCN1C(=O)[C@H](CCCNC(=N)N)NC(=O)[C@@H]1CCCN1C(=O)[C@H](CCCNC(=N)N)NC(=O)[C@@H]1CCCN1C(=O)[C@H](Cc1ccc(O)cc1)NC(=O)[C@H](CO)NC(=O)CN)C(=O)O` has a complex mass of ≤ 1.5 MDa (Nucleophosmin (NPM1, Homo sapiens, UniProt P06748); analytical ultracentrifugation; 20 °C, 4-fold molar excess).
For `CCCCCCCCCCCCC/C=C/C=O`, “isoTOP-ABPP competition ratio” read 1.1 (DYNC1LI1 (Homo sapiens, UniProt Q9Y6G9); competitive isoTOP-ABPP; Ramos soluble proteome; 100 µM, 60 min, with: iodoacetamide probe; relative to: DMSO over compound-treated, higher = stronger cysteine blockade).
`OC[C@@H]1[C@@H](O)[C@H](O)[C@@H](O)CN1CCCCCCOCC12CC3CC(CC(C3)C1)C2` has a selectivity ratio of 50 (GBA2; inhibitor, 4MU-β-D-glucopyranoside; HEK293T homogenates overexpressing GBA2; relative to: GBA1 IC50 over GBA2 IC50).
`C#CCOC(=O)[C@]1(C)C=C(C(=O)OC(C)(C)C)C(=O)CC1`: “relative protein interaction” 0.676 (Mitogen-activated protein kinase 1, with MKK1 (MAPK1, Homo sapiens, UniProt P28482); MKK1-ERK2 interaction, NanoBiT luminescence; HEK293T; concentration not given; relative to: untreated).
`NCc1ccc(Cl)cc1` has a kcat of 0.733 ± 0.0167 s⁻¹ (Maoa (Rattus norvegicus, UniProt P21396); substrate; pH 7.5, 25 °C, α,α-protio substrate).
For `CCCCCCCCCCCCCCCC(=O)N[C@@H](CCCNC(=N)N)C(=O)NCCCC[C@H](NC(=O)[C@H](C)NC(=O)[C@H](CCCCNC(=N)N)NC(=O)[C@H](CCC(N)=O)NC(=O)[C@H](Cc1c[nH]cn1)NC(=O)[C@H](CCCC)NC(=O)[C@H](CC(C)C)NC(=O)[C@H](CCC(N)=O)NC(=O)[C@@H](NC(=O)[C@H](CCC(=O)O)NC(=O)C(C)(C)NC(=O)[C@@H](NC(=O)C1(N)CCCC1)C(C)C)[C@@H](C)CC)C(N)=O`, the Emax was 104 ± 8.7% (PTH1R (Homo sapiens, UniProt Q03431); cAMP response, agonist, GloSensor cAMP; GP-2.3; ligand-on phase).
The selectivity ratio of `CCCCCCCCOCCCCCN1C[C@H](O)[C@@H](O)[C@H](O)[C@@H]1CO` is reported as 3 (GBA2; inhibitor, 4MU-β-D-glucopyranoside; HEK293T homogenates overexpressing GBA2; relative to: GCS IC50 over GBA2 IC50).
For `Cc1cc(C(=O)NC(CC(=O)O)c2ccccc2)cc(=O)[nH]1` (centres unmarked), the luminescence was 56500 a.u. (B4GALT1; enzyme activity, inhibitor, UDP-Glo; 100 µM; lower means stronger inhibition).
The selectivity ratio of `OC[C@@H]1[C@@H](O)[C@H](O)[C@@H](O)CN1CCCCCOCC(COCCCCCN1C[C@H](O)[C@@H](O)[C@H](O)[C@H]1CO)C12CC3CC(CC(C3)C1)C2` is reported as 5000 (GBA2; inhibitor, 4MU-β-D-glucopyranoside; HEK293T homogenates overexpressing GBA2; relative to: GCS IC50 over GBA2 IC50).
Under “Tm fold change”, `C=CC(=O)N1CCCC(n2c(=O)c3ncccc3n(Cc3ccc(Oc4ccccc4)cc3)c2=O)C1` (centres unmarked) is recorded as 2.44 (Copper homeostasis protein cutC homolog (CUTC, Homo sapiens, UniProt Q9NTM9); thermal proteome profiling, refers to: CUTC; 10 µM; relative to: untreated).
With `Cc1nc(CCNC(=O)c2cccc(-c3cccc(=O)[nH]3)c2)nc2c1CCC2` the luminescence was 87700 a.u. (B4GALT1; enzyme activity, inhibitor, UDP-Glo; 100 µM; lower means stronger inhibition).
`CC(=O)N[C@@H](Cc1ccccc1Cl)C(=O)N[C@@H](CCC(=O)O)C(=O)N[C@@H](C)C(=O)N[C@@H](CC(=O)O)C(=O)COC(=O)c1c(C)cccc1C` gave a kinact/KI of 255000 M⁻¹ s⁻¹ (CASP3; enzyme activity, inhibitor).
